Results of several laboratories.
Each line is one published result; not all experiments were run side by side. “And” joins repeats or separate records; there may be more than shown. ± marks the error that the study gave.

O=C(C[Se]C(=O)c1ccccc1)Nc1cccc(C(F)(F)F)c1 — mean TGI (NCI60 CNS subpanel; NCI60 five-dose screen): 4.01 µM
CCCNC(=O)[C@H]1O[C@@H]1C(=O)N[C@H](C(=O)N1CCC[C@H]1C(=O)OCC1=C2C(C)=CC(C)=[N+]2[B-](C)(C)n2c(C)cc(C)c21)[C@@H](C)CC — phototoxicity index (MCF-10A; MTT; 4 h; relative to: dark EC50 over light EC50): > 9
CC(C)(C)C(=O)OCOP(=O)(OCOC(=O)C(C)(C)C)C1CCCN(O)C1=O (centres unmarked) — log GI50 (UO-31): -6.51 log M
CC(C)CC(O)(CC(C)C)c1cn(C(=O)N2CCCC2)nn1 — SILAC ratio (mouse T-cells; protein abundance, unenriched SILAC proteomics, item: Tfg; 1 nM, 6 h, single tryptic peptide; relative to: DMSO): 1.01 and 0.85
O=C(C[Se]C(=O)c1ccco1)Nc1cccc(C(F)(F)F)c1 — mean growth percent (NCI60 CNS subpanel; cell growth; 10 µM, 48 h, one-dose): -44.2%
CC(C)[C@H](NC(=O)[C@H](CCCNC(=N)N)NC(=O)[C@@H]1CCCN1C(=O)[C@@H](NC(=O)[C@H](C)NC(=O)[C@H](Cc1ccc(O)cc1)NC(=O)[C@H](CCC(N)=O)NC(=O)[C@H](CCCCN)NC(=O)[C@H](CCCNC(=N)N)NC(=O)[C@@H]1CCCN1C(=O)[C@H](CCC(=O)O)NC(=O)[C@@H](NC(=O)[C@H](C)N)[C@@H](C)O)[C@@H](C)O)C(=O)N[C@@H](Cc1ccccc1)C(=O)N[C@@H](Cc1c[nH]c2ccccc12)C(=O)N[C@H](C(=O)N[C@@H](CC(=O)O)C(=O)N[C@@H](C)C(=O)N1CCC[C@H]1C(=O)NCC(=O)NCCOCCOCCOCCOCCOCCOCCOCCOCCOCCOCCOCCOCCC(=O)N[C@@H](CS)C(N)=O)[C@@H](C)O — selectivity ratio (HCC2279 lung adenocarcinoma; cell binding, phage binding, item: output/input phage; 10 min, 37 °C; relative to: control phage): 2.8 ± 0.56
Cc1cc(Oc2nc(N3CC[C@@H](c4ccncc4)C3)ncc2F)[nH]n1 — IC50 (OVCAR-4; cell proliferation): 52.5 µM
O=C(O)c1ccc(-c2nc(-c3ccccc3Cl)c3sccn23)cc1 — CD61-positive cells (K562; flow cytometry; concentration not given, 48 h): > 90%
CSCC[C@H](NC(=O)[C@@H](NC(=O)[C@H](CCC(N)=O)NC(=O)[C@H](CO)NC(=O)[C@@H](N)C(C)C)[C@@H](C)O)C(=O)N[C@@H](CCCNC(=N)N)C(=O)N[C@@H](CCC(N)=O)C(=O)N[C@H](C(=O)N[C@@H](C)C(=O)N[C@H](C(=O)N1CCC[C@H]1C(=O)N[C@@H](CC(C)C)C(=O)N[C@@H](CC(C)C)C(=O)N[C@@H](Cc1c[nH]c2ccccc12)C(=O)N[C@@H](Cc1ccccc1)C(=O)N[C@@H](Cc1c[nH]c2ccccc12)C(=O)N[C@H](C(=O)NCC(=O)N[C@@H](CO)C(=O)N[C@@H](CC(C)C)C(=O)NCCOCCOCCOCCOCCOCCOCCOCCOCCOCCOCCOCCOCCC(=O)N[C@@H](CS)C(N)=O)[C@@H](C)O)C(C)C)[C@@H](C)O — selectivity ratio (H1355 lung adenocarcinoma; cell binding, phage binding, item: output/input phage; 10 min, 37 °C; relative to: control phage): 6.4 ± 3.9
O=C(C[Se]C(=O)c1cccnc1Nc1cccc(C(F)(F)F)c1)Nc1cccc(C(F)(F)F)c1 — CC50 (NCI60 colon subpanel; NCI60 five-dose screen): 24.9 µM
COc1ccccc1-c1ccncc1C(=O)Nc1nnc(OCc2ccc(Cl)cc2)s1 — colony survival (DLD-1 BRCA2-/-; 1 µM, single replicate; relative to: untreated): 33.3% and 35.3% and 47.9%
CC(C)C[C@H](NC(=O)[C@H](CC(=O)O)NC(=O)CNC(=O)[C@@H](N)CCCNC(=N)N)C(=O)N[C@@H](C)C(=O)N[C@H](C(=O)N[C@@H](CC(C)C)C(=O)N[C@@H](CCCNC(=N)N)C(=O)N[C@@H](CCC(N)=O)C(=O)N[C@@H](CC(C)C)C(=O)N[C@@H](C)C(=O)N[C@@H](CCC(N)=O)C(=O)N[C@@H](CCC(=O)O)C(=O)N[C@@H](CC(=O)O)C(=O)NCC(=O)N[C@H](C(=O)N[C@H](C(=O)NCC(=O)N[C@H](C(=O)N[C@@H](CCCNC(=N)N)C(=O)NCCOCCOCCOCCOCCOCCOCCOCCOCCOCCOCCOCCOCCC(=O)N[C@@H](CS)C(N)=O)C(C)C)C(C)C)C(C)C)[C@@H](C)O — selectivity ratio (HCC2279 lung adenocarcinoma; cell binding, phage binding, item: output/input phage; 10 min, 37 °C; relative to: control phage): 3.1 ± 2
CSCC[C@H](N)C(=O)N[C@@H](C)C(=O)N[C@@H](Cc1c[nH]c2ccccc12)C(=O)N[C@@H](Cc1c[nH]cn1)C(=O)N[C@@H](CC(=O)O)C(=O)N[C@@H](CC(=O)O)C(=O)N[C@@H](CCC(=O)O)C(=O)N[C@@H](CCC(=O)O)C(=O)N[C@@H](Cc1ccccc1)C(=O)N[C@@H](C)C(=O)N[C@@H](CCCNC(=N)N)C(=O)N[C@@H](CCCNC(=N)N)C(=O)N[C@@H](CCCNC(=N)N)C(=O)N[C@@H](CCCNC(=N)N)C(=O)NCCCCCC(=O)NCCCCC(NC(=O)CCCCCNC(=O)[C@H](CCCNC(=N)N)NC(=O)[C@H](CCCNC(=N)N)NC(=O)[C@H](CCCNC(=N)N)NC(=O)[C@H](CCCNC(=N)N)NC(=O)[C@H](C)NC(=O)[C@H](Cc1ccccc1)NC(=O)[C@H](CCC(=O)O)NC(=O)[C@H](CCC(=O)O)NC(=O)[C@H](CC(=O)O)NC(=O)[C@H](CC(=O)O)NC(=O)[C@H](Cc1c[nH]cn1)NC(=O)[C@H](Cc1c[nH]c2ccccc12)NC(=O)[C@H](C)NC(=O)[C@@H](N)CCSC)C(=O)NCCCCC(NC(=O)C(CCCCNC(=O)CCCCCNC(=O)[C@H](CCCNC(=N)N)NC(=O)[C@H](CCCNC(=N)N)NC(=O)[C@H](CCCNC(=N)N)NC(=O)[C@H](CCCNC(=N)N)NC(=O)[C@H](C)NC(=O)[C@H](Cc1ccccc1)NC(=O)[C@H](CCC(=O)O)NC(=O)[C@H](CCC(=O)O)NC(=O)[C@H](CC(=O)O)NC(=O)[C@H](CC(=O)O)NC(=O)[C@H](Cc1c[nH]cn1)NC(=O)[C@H](Cc1c[nH]c2ccccc12)NC(=O)[C@H](C)NC(=O)[C@@H](N)CCSC)NC(=O)CCCCCNC(=O)[C@H](CCCNC(=N)N)NC(=O)[C@H](CCCNC(=N)N)NC(=O)[C@H](CCCNC(=N)N)NC(=O)[C@H](CCCNC(=N)N)NC(=O)[C@H](C)NC(=O)[C@H](Cc1ccccc1)NC(=O)[C@H](CCC(=O)O)NC(=O)[C@H](CCC(=O)O)NC(=O)[C@H](CC(=O)O)NC(=O)[C@H](CC(=O)O)NC(=O)[C@H](Cc1c[nH]cn1)NC(=O)[C@H](Cc1c[nH]c2ccccc12)NC(=O)[C@H](C)NC(=O)[C@@H](N)CCSC)C(N)=O (some centres unmarked) — mRNA level (mouse bone marrow macrophages; RT-qPCR, item: Mapk11 (p38β); concentration not given, unit not given, with: RANKL; relative to: RANKL alone): 1.25
NC(=O)N/N=C/c1ccc(OCc2ccccc2)cc1 — glutathione peroxidase activity (OD450) (IMR-32; item: GPX3; 100 µg/mL, 24 h; higher = more activity): 0.11 a.u.
CC(=O)NCSC[C@H](NC(=O)[C@@H]1CCCN1C(=O)[C@H](C)NC(=O)[C@@H](NC(=O)CNC(=O)[C@@H](NC(=O)[C@H](Cc1c[nH]c2ccccc12)NC(=O)[C@H](C)NC(=O)CNC(=O)[C@H](CO)NC(=O)[C@H](C)NC(=O)[C@@H]1CCCN1C(=O)[C@H](Cc1c[nH]c2ccccc12)NC(=O)[C@H](C)NC(=O)[C@H](C)NC(=O)[C@@H](N)Cc1ccc(O)cc1)[C@@H](C)O)[C@@H](C)O)C(=O)N[C@@H](CO)C(=O)N[C@@H](C)C(=O)NCC(=O)N[C@H](C(=O)NCCOCCOCCOCCOCCOCCOCCOCCOCCOCCOCCOCCOCCC(=O)N[C@@H](CS)C(N)=O)[C@@H](C)O — selectivity ratio (MiaPaCa pancreatic cancer; cell binding, phage binding, item: output/input phage; 10 min, 37 °C; relative to: control phage): 90 ± 20
O=C(C[Se]C(=O)c1ccccc1Nc1ccccc1)Nc1cccc(C(F)(F)F)c1 — CC50 (NCI60 breast subpanel; NCI60 five-dose screen): 11 µM
CC1CCC2C(C)C(OC(=O)CCC(=O)N3CCC(Nc4ccc(S(=O)(=O)NC(=O)c5ccc(N6CCN(CC7=C(c8ccc(Cl)cc8)CC(C)(C)CC7)CC6)cc5Oc5cnc6[nH]ccc6c5)cc4[N+](=O)[O-])CC3)OC3OC4(C)CCC1C32OO4 (centres unmarked) — necrotic cells (THP-1; annexin V/PI flow cytometry, item: annexin V-/PI+; 3.2 µM, 24 h): 1.1%
COc1ccc(NC(=O)c2ccc3[nH]c(-c4ccc(N(C)C)cc4)nc3c2)cn1 — PI-positive cells (HCT116; IncuCyte; concentration not given, 4 (unit not given)): 4.83 count and 3.42 count and 3.92 count
CC(=O)Oc1ccccc1C(=O)[Se]CC(=O)Nc1cccc(C(F)(F)F)c1 — CC50 (NCI60 breast subpanel; NCI60 five-dose screen): 44 µM
CC[C@H](C)[C@H](NC(=O)[C@H](C)NC(=O)CNC(=O)[C@H](Cc1ccccc1)NC(=O)[C@H](CC(N)=O)NC(=O)[C@H](CC(N)=O)NC(=O)[C@H](CO)NC(=O)[C@H](CO)NC(=O)[C@H](Cc1c[nH]cn1)NC(=O)[C@@H](NC(=O)[C@H](CC(C)C)NC(=O)[C@H](Cc1ccccc1)NC(=O)[C@H](CC(N)=O)NC(=O)[C@H](C)NC(=O)[C@H](CC(C)C)NC(=O)[C@H](CCCNC(=N)N)NC(=O)[C@H](CCC(N)=O)NC(=O)[C@@H](NC(=O)[C@H](C)NC(=O)[C@@H]1CSSC[C@H](NC(=O)[C@@H](N)CCCCN)C(=O)N[C@@H](CC(N)=O)C(=O)N[C@@H]([C@@H](C)O)C(=O)N[C@@H](C)C(=O)N[C@@H]([C@@H](C)O)C(=O)N1)[C@@H](C)O)C(C)C)C(=O)N[C@@H](CC(C)C)C(=O)N[C@@H](CO)C(=O)N[C@@H](CO)C(=O)N[C@H](C(=O)N[C@@H](CC(N)=O)C(=O)N[C@H](C(=O)NCC(=O)N[C@@H](CO)C(=O)N[C@@H](CC(N)=O)C(=O)N[C@H](C(=O)N[C@@H](Cc1ccc(O)cc1)C(N)=O)[C@@H](C)O)C(C)C)[C@@H](C)O — internalized fraction (RIN-m5F; ELISA; Golgi and mitochondria enriched fraction; 24 h; relative to: total): 2.6% and ~3%
CC(C)C[C@H](NC(=O)[C@H](CCC(=O)O)NC(=O)[C@@H](N)Cc1ccccc1)C(=O)N[C@@H](CCC(=O)O)C(=O)N[C@@H](CCCNC(=N)N)C(=O)N[C@@H](CCCNC(=N)N)C(=O)N[C@@H](Cc1ccccc1)C(=O)N[C@@H](CCCCN)C(=O)N[C@@H](CCC(N)=O)C(=O)N[C@@H](CCC(N)=O)C(=O)O — protein level (HCT-116; Western blot, item: vimentin; concentration not given, unit not given; relative to: vehicle): 1.32 and 1.11 and 1.01
O=C(C[Se]C(=O)c1cc2ccccc2[nH]1)Nc1cccc(C(F)(F)F)c1 — CC50 (NCI60 colon subpanel; NCI60 five-dose screen): 16.2 µM
C[C@@H]1O[C@H]2O[C@@H]3C4(O)C(=O)c5cccc(O)c5C(=O)C4(O)O[C@]3(C)[C@]21O (some centres unmarked) — selectivity index (MDA-MB-231 and Vero; MTT; relative to: CC50 Vero over EC50 MDA-MB-231): 1.15
